Assay results pooled from the literature.
Protocols differ between the studies behind these lines. ± gives the spread as reported.
Cell line: RAW264.7

Cc1ccc(C(C)C)c(OC(=O)Cn2cnc3c2c(=O)n(C)c(=O)n3C)c1  viability (cell growth or viability, MTT; 50 µM, 24 h): 94%
O=C(/C=C/CI)O[C@@H]1COC(=O)C1  IC50 (cytotoxicity): 23 µM
CC[C@H](C)[C@H](NC(=O)[C@H](CCCCN)NC(=O)[C@H](CCCCN)NC(=O)[C@H](Cc1ccccc1)NC(=O)[C@H](CC(C)C)NC(=O)[C@@H](CCCCN)NC(=O)[C@H](Cc1c[nH]c2ccccc12)NC(=O)[C@H](CCCCN)NC(C)=O)C(=O)NCC(=O)N[C@@H](C)C(=O)N[C@H](C(=O)N[C@@H](CC(C)C)C(=O)N[C@@H](CCCCN)C(=O)N[C@H](CCCCN)C(=O)N[C@@H](CC(C)C)C(N)=O)C(C)C  LD50 (cell viability, MTT; 1 h, 37 °C): 84 ± 14 µM
COC1CC(=O)N(C)C=CCCCC(=O)N(C)C(C(C)C)C(=O)N(C)C(CC(C)C)C(=O)OC(C(C)C)CC(C)C1 (stereo not drawn)  cytotoxicity (MTT; up to 100 µM, 24 h): not toxic
COC1=C[C@@H]2[C@@H]3Cc4c(Br)cc(OC)c(OC(=O)c5cnc(C)cn5)c4[C@]2(CCN3C)CC1=O  IC50 (cytotoxicity, MTT; 24 h): > 100 µM
O=C(/C=C/CCl)OC1CCOC1=O (racemic)  IC50 (cytotoxicity): > 49 µM
CC(C)[C@@H]1CC[C@@H](C)C[C@H]1OC(=O)Cn1cnc2c1c(=O)n(C)c(=O)n2C  viability (cell growth or viability, MTT; 50 µM, 24 h): 91.4%
COC1=C[C@@H]2[C@@H]3Cc4ccc(OC)c(OC(=O)c5nc(C)c(C)nc5C)c4[C@]2(CCN3C)CC1=O  IC50 (cytotoxicity, MTT; 24 h): 17.9 ± 2.24 µM
CC[C@H](C)[C@H](NC(=O)[C@H](CCCCN)NC(=O)[C@H](CCCCN)NC(=O)[C@H](Cc1ccccc1)NC(=O)[C@H](CC(C)C)NC(=O)[C@H](CCCCN)NC(=O)[C@H](Cc1c[nH]c2ccccc12)NC(=O)[C@H](CCCCN)NC(C)=O)C(=O)NCC(=O)N[C@@H](C)C(=O)N[C@H](C(=O)N[C@@H](CC(C)C)C(=O)N[C@@H](CCCCN)C(=O)N[C@H](C(=O)N[C@@H](CC(C)C)C(N)=O)C(C)C)C(C)C  LD50 (cell viability, MTT; 1 h, 37 °C): 3.8 µM
CC(C)[C@@H]1CC[C@@H](C)C[C@H]1OC(=O)COC(=O)Cn1cnc2c1c(=O)n(C)c(=O)n2C  viability (cell growth or viability, MTT; 50 µM, 24 h): 88%
COC1=C[C@@H]2[C@@H]3Cc4c(Br)cc(OC)c(OC(=O)c5ccnnc5)c4[C@]2(CCN3C)CC1=O  IC50 (cytotoxicity, MTT; 24 h): > 100 µM
C=CCc1ccc(OC(=O)COC(=O)Cn2cnc3c2c(=O)n(C)c(=O)n3C)c(OC)c1  viability (cell growth or viability, MTT; 50 µM, 24 h): 92%
CC[C@H](C)[C@H](NC(=O)CN)C(=O)NCC(=O)N[C@@H](C)C(=O)N[C@H](C(=O)N[C@@H](CC(C)C)C(=O)N[C@@H](CCCCN)C(=O)N[C@H](C(=O)N[C@@H](CC(C)C)C(=O)N[C@H](C(=O)N[C@H](C(=O)NCC(=O)N[C@@H](CC(C)C)C(=O)N1CCC[C@H]1C(=O)N[C@@H](C)C(=O)N[C@@H](CC(C)C)C(=O)N[C@H](C(=O)N[C@@H](CO)C(=O)N[C@@H](Cc1c[nH]c2ccccc12)C(=O)N[C@H](C(=O)N[C@@H](CCCCN)C(=O)N[C@@H](CCCNC(=N)N)C(=O)N[C@@H](CCCCN)C(=O)N[C@@H](CCCNC(=N)N)C(=O)N[C@@H](CCC(N)=O)C(=O)N[C@@H](CCC(N)=O)C(N)=O)[C@@H](C)CC)[C@@H](C)CC)[C@@H](C)O)[C@@H](C)O)C(C)C)C(C)C  IC20 (cytotoxicity, MTT; 4 h): 2 µM
COC1=C[C@@H]2[C@@H]3Cc4ccc(OC)c(OC(=O)CNC(=O)OC(C)(C)C)c4[C@]2(CCN3C)CC1=O  IC50 (cytotoxicity, MTT; 24 h): > 100 µM
C=CCc1ccc(OC(=O)CSc2nnc(Cn3cnc4c3c(=O)n(C)c(=O)n4C)o2)c(OC)c1  viability (cell growth or viability, MTT; 50 µM, 24 h): 98%
COC1=C[C@@H]2[C@@H]3Cc4ccc(OC)c(OC(=O)[C@H](CC(C)C)NC(=O)OC(C)(C)C)c4[C@]2(CCN3C)CC1=O  IC50 (cytotoxicity, MTT; 24 h): > 100 µM
CC/C=C\C/C=C\C/C=C\CCCCCCCC(=O)OC[C@H](CO[C@@H]1O[C@H](CO)[C@H](O)[C@H](O)[C@H]1O)OC(=O)CCCCCCC/C=C\C/C=C\C/C=C\CC  LD50 (cell viability, MTT; serum-free medium; 20 h): > 20 µM
CCCCCCCCC/C=C\CCCc1cc(=O)c2ccccc2n1C  GIC50 (48 h, 50% growth inhibition): 24 ± 9 mg/L
COC1=C[C@@H]2[C@@H]3Cc4ccc(OC)c(OC(=O)[C@@H]5CCCN5C(=O)OC(C)(C)C)c4[C@]2(CCN3C)CC1=O  IC50 (cytotoxicity, MTT; 24 h): > 100 µM
Cn1c(=O)c2c(ncn2CC(=O)N/N=C/C=Cc2ccccc2)n(C)c1=O  viability (cell growth or viability, MTT; 50 µM, 24 h): 94.7%
COC1=C[C@@H]2[C@@H]3Cc4ccc(OC)c(OC(=O)CN)c4[C@]2(CCN3C)CC1=O  IC50 (cytotoxicity, MTT; 24 h): > 100 µM
CC/C=C\C/C=C\C/C=C\CCCCCC(=O)OC[C@@H](O)CO[C@@H]1O[C@H](CO)[C@H](O)[C@H](O)[C@H]1O  LD50 (cell viability, MTT; serum-free medium; 20 h): > 100 µM
COc1cc(C=O)ccc1OC(=O)Cn1cnc2c1c(=O)n(C)c(=O)n2C  viability (cell growth or viability, MTT; 50 µM, 24 h): 90%
CC[C@H](C)[C@H](NC(=O)[C@@H](NC(=O)[C@H](CCCCN)NC(=O)[C@H](CC(=O)O)NC(=O)[C@H](CCCCN)NC(=O)[C@H](Cc1ccccc1)NC(=O)[C@H](Cc1ccccc1)NC(=O)[C@H](CO)NC(=O)[C@H](CCCCN)NC(=O)[C@H](CCSC)NC(=O)[C@H](CCCCN)NC(=O)[C@H](CCCCN)NC(=O)[C@H](Cc1c[nH]c2ccccc12)NC(=O)[C@@H](N)Cc1ccccc1)C(C)C)C(=O)N1CCC[C@H]1C(=O)N[C@@H](CCCCN)C(=O)N[C@H](C(=O)N[C@@H](CCC(N)=O)C(=O)N[C@@H](CCC(N)=O)C(=O)N[C@@H](C)C(=O)N[C@@H](Cc1ccc(O)cc1)C(=O)N[C@@H](CO)C(=O)N[C@@H](CC(C)C)C(=O)N[C@@H](Cc1ccc(O)cc1)C(=O)N[C@@H](CC(N)=O)C(=O)N[C@@H](CCCCN)C(=O)N[C@@H](CC(C)C)C(=O)N[C@@H](CCC(N)=O)C(=O)N[C@@H](Cc1c[nH]cn1)C(=O)N[C@@H](CCCCN)C(=O)N[C@@H](CC(C)C)C(N)=O)C(C)C  viability (WST-8; up to 25 µg/mL, 24 h; baseline: water): no effect

Repeated from above:
O=C(/C=C/CI)O[C@@H]1COC(=O)C1  IC50 (cytotoxicity): 23 µM
CC[C@H](C)[C@H](NC(=O)[C@H](CCCCN)NC(=O)[C@H](CCCCN)NC(=O)[C@H](Cc1ccccc1)NC(=O)[C@H](CC(C)C)NC(=O)[C@@H](CCCCN)NC(=O)[C@H](Cc1c[nH]c2ccccc12)NC(=O)[C@H](CCCCN)NC(C)=O)C(=O)NCC(=O)N[C@@H](C)C(=O)N[C@H](C(=O)N[C@@H](CC(C)C)C(=O)N[C@@H](CCCCN)C(=O)N[C@H](CCCCN)C(=O)N[C@@H](CC(C)C)C(N)=O)C(C)C  LD50 (cell viability, MTT; 1 h, 37 °C): 84 ± 14 µM
COC1CC(=O)N(C)C=CCCCC(=O)N(C)C(C(C)C)C(=O)N(C)C(CC(C)C)C(=O)OC(C(C)C)CC(C)C1 (stereo not drawn)  cytotoxicity (MTT; up to 100 µM, 24 h): not toxic
COC1=C[C@@H]2[C@@H]3Cc4c(Br)cc(OC)c(OC(=O)c5cnc(C)cn5)c4[C@]2(CCN3C)CC1=O  IC50 (cytotoxicity, MTT; 24 h): > 100 µM
